# Experimental data collected from several papers.
# Parts stem from different laboratories: compare values within a part only. Changes are numbered by the printed parent chain.

# Sample 1
# Target: ABI1, truncated, D143A, DHFR fusion (Arabidopsis thaliana)
# Technique: DHFR PCA, deep sequencing
# Matrix: yeast
# Notes: methotrexate growth selection, single substitutions
# Added: (+)-ABA 0.032 µM
# Baseline: wild-type fitted maximum
# Reading: higher = stronger binding
# Starting sequence: PYL1, truncated, DHFR fusion (Arabidopsis thaliana); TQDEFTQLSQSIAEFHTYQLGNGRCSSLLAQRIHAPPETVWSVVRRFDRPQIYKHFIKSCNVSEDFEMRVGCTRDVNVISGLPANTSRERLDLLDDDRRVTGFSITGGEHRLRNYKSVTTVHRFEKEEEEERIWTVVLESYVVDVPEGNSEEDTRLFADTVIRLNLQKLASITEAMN; partner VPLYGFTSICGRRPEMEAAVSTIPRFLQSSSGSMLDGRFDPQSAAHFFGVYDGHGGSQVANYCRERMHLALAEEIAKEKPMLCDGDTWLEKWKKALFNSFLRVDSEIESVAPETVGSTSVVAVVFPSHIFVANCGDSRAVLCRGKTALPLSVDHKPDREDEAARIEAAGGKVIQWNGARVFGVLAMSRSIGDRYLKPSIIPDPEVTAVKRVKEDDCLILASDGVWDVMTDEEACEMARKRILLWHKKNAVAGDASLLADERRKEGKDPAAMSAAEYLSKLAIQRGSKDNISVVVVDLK
Change,relative binding score [%]
G21V,17.1
Y115G,2.94
L138P,-0.306
E147A,20.4
C60W,-1
Y115M,2.61
R69A,16.7
N149M,49
R132H,39.7
L28Y,-1.77
E14V,2.93
S104L,-2.95
S9H,40.8

# Sample 2
# Target: Eukaryotic initiation factor 4A-I (EIF4A1, Homo sapiens, UniProt P60842, residues 1-406, full length assumed)
# Chain of UniProt P60842 (whole entry, looked up): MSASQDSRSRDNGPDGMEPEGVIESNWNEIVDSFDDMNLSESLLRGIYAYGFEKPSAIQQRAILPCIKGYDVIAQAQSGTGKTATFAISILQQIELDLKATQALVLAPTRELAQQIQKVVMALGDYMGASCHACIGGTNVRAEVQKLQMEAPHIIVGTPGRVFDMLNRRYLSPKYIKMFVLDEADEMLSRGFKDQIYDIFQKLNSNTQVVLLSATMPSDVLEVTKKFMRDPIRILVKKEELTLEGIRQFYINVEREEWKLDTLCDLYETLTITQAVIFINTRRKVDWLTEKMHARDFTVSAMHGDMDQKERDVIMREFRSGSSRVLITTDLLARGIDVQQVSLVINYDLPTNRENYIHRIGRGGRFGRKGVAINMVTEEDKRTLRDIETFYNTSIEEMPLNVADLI
# Technique: RNA Bind-n-Seq
# Form: RNA
# Matrix: in vitro
# Tested at: 15 pmol
# Notes: 4-mer, random 30-nt RNA, single round
# Added: 3 µM RocA, 2 mM AMP-PNP
# Baseline: mean of 4-mers
# Reading: higher = stronger binding
Sequence,4-mer enrichment Z-score
GCCA,-0.843
AAUA,0.832
GUCA,-1.07
AAGU,1.37
GUAG,0.857
CGAU,0.00292
CCUA,-0.935
CGUG,0.538
GUAU,0.604
AGGA,1.53
AUAA,0.823
GAAA,2.47
AAUC,-0.675
CUGC,-0.641
CUAU,-0.637
GGCA,0.0412
GCGU,0.646
GUAC,-0.573
CUGA,0.0368
UCAC,-1.71
GAGU,1.92
UAGA,0.943

# Sample 3
# Target: Prothrombin, mature alpha-thrombin (F2, Homo sapiens, UniProt P00734)
# Technique: aptamer microarray, sandwich
# Form: DNA with 2'F-ANA
# Matrix: in vitro
# Tested at: 200 nM
# Notes: whole 15-mer aptamer, many near background
# Added: Cy3 exosite-II aptamer, 400 nM
# Reading: higher = stronger binding
# Sequence: GGTTGGTGTGGTTGG
Modification,mean fluorescence intensity
2'F-ANA at 3 5 6 7 8 9 11 15,100 a.u.
2'F-ANA at 5 6 7 8 10 13 14 15,47.6 a.u.
2'F-ANA at 1 3 5 8 10,57.9 a.u.
2'F-ANA at 3 4 5 9 10 12 14,46.6 a.u.
2'F-ANA at 1 3 5 6 7 8 10 11 12 13 15,52.5 a.u.
2'F-ANA at 5 6 7 9 10 11 14 15,49.4 a.u.
2'F-ANA at 1 2 4 6 11 13 14,45.9 a.u.
2'F-ANA at 3 4 6 7 8 10 11 12 13 14,166 a.u.
2'F-ANA at 3 5 6 12 13 14,55.8 a.u.
2'F-ANA at 7 8 9 10 11,213 a.u.
2'F-ANA at 1 2 3 4 6 8 11 15,156 a.u.
2'F-ANA at 4 5 6 8 9 12 14 15,48.8 a.u.
2'F-ANA at 1 7 8 9 10 11 13 14 15,54.5 a.u.
2'F-ANA at 5,88.2 a.u.
2'F-ANA at 1 2 4 6 8 9 12 13 14,56.5 a.u.
2'F-ANA at 1 4 5 6 7 8 10 12 13,47.5 a.u.
2'F-ANA at 1 2 3 4 5 6 8 9 10 11 12 13 14,50.6 a.u.
2'F-ANA at 2 3 5 10 12 13,55 a.u.
2'F-ANA at 1 4 6 8 10 12 13 14 15,47.7 a.u.
2'F-ANA at 3 7 8 10 12 14 15,470 a.u.

# Sample 4
# Target: CCNE2, cyclin fold, Cln2 fusion (human)
# Technique: yeast growth competition, sequencing
# Matrix: yeast
# Notes: strong parent motif
# Baseline: not given
# Reading: higher = stronger binding
# Starting sequence: RBL1 docking peptide (human); GSAKRRLFGEDPP
Change,normalised enrichment score
GSAKRRDFGEDPP [L7D],-0.0599
GSFKRRLFGEDPP [A3F],3.6
GSAKRALFGEDPP [R6A],1.38
GSAKRRLFGHDPP [E10H],3.75
GSAKRRLFGEDAP [P12A],4.29
GSAKCRLFGEDPP [R5C],0.198
GSAKERLFGEDPP [R5E],0.212
GSAKRRLFQEDPP [G9Q],5.44
PSAKRRLFGEDPP [G1P],4.02
GFAKRRLFGEDPP [S2F],2.6
RSAKRRLFGEDPP [G1R],4.73
GSAKRRLFGEDPN [P13N],4.61
GSAKRRLFGYDPP [E10Y],3.23
GSARRRLFGEDPP [K4R],4.98
GSAFRRLFGEDPP [K4F],1.39
GSDKRRLFGEDPP [A3D],-0.426
GSAPRRLFGEDPP [K4P],-0.335
GSAKRRLFGEDPA [P13A],4.33
ASAKRRLFGEDPP [G1A],4.68
GLAKRRLFGEDPP [S2L],2.7
GSAKRRHFGEDPP [L7H],0.236
GSAKRRLFGMDPP [E10M],3.01
GSAKRRLFMEDPP [G9M],4.88
CSAKRRLFGEDPP [G1C],4.57
GSAYRRLFGEDPP [K4Y],0.984

# Sample 5
# Target: UBE2L6 UBC core domain (UniProt O14933)
# Technique: yeast two-hybrid
# Matrix: yeast
# Notes: mostly zero background
# Baseline: not given
# Reading: higher = stronger interaction
# B1: DTX4 RING domain (UniProt Q9Y2E6); chain QKVRHPPDEDCTICMERLTAPSGYKGPQPTVKPDLVGKLSRCGHVYHIYCLVAMYNNGNKDGSLQCPTCKTIYGVKTGTQ
# B2: TRIML1 RING domain (UniProt Q8N9V2); chain LMENLREELTCFICLDYFSSPVTTECGHSFCLVCLLRSWEEHNTPLSCPECWRTLEGPHFQS
# B3: TRAF5 RING domain (UniProt O00463); chain FVERLEERYKCAFCHSVLHNPHQTGCGHRFCQHCILSLRELNTVPICPVDKEVIKSQEVFK
# B4: RNF38 RING domain (UniProt Q9H0F5); chain PNNHQSEQTLCVVCMCDFESRQLLRVLPCNHEFHAKCVDKWLKANRTCPICRADASEVHRDS
# B5: TRIM5 RING domain (UniProt Q9C035); chain ILVNVKEEVTCPICLELLTQPLSLDCGHSFCQACLTANHKKSMLDKGESSCPVCRISYQPENIRP
# B6: VPS41 RING domain (UniProt P49754); chain KGVLVDEENICESCLSPILPSDAAKPFSVVVFHCRHMFHKECLPMPSMNSAAQFCNICSAKNRGPGSAI
# B7: TRIM40 RING domain (UniProt Q6P9F5); chain LQKDNQEEGVCPICQESLKEAVSTNCGHLFCRVCLTQHVEKASASGVFCCPLCRKPCSEEVLG
# B8: TRIM5 RING domain (UniProt Q9C035); chain LREVKLSPEGQKVDHCARHGEKLLLFCQEDGKVICWLCERSQEHRGHHTFLTEEVAREYQVKL
# B9: RNF208 RING domain (UniProt Q9H0X6); chain SSAAAGEPLECPTCGHSYNVTQRRPRVLSCLHSVCEQCLQILYESCPKYKFISCPTCRRETVLFTDYG
# Target sequence (chain): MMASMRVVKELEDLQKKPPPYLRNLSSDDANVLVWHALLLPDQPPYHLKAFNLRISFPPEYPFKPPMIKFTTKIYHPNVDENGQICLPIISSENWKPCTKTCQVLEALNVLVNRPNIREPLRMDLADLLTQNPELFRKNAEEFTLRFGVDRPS
Sequence,lacZ reporter activity
B1 (DTX4 RING domain),0
B2 (TRIML1 RING domain),0
QVDKAVFHMQSVKCLKCQEQKRAVLPCQHAALCELCAEGSECPICQPGRAHTLQS (UNK RING domain (UniProt Q9C0B0)),0
FQGDVDEDLICPICSGVLEEPVQAPHCEHAFCNACITQWFSQQQTCPVDRSVVTVAHLRP (RNF41 RING domain (UniProt Q9H4P4)),0
B3 (TRAF5 RING domain),0
B4 (RNF38 RING domain),0
VEPSEENSKDCVVCQNGTVNWVLLPCRHTCLCDGCVKYFQQCPMCRQFVQESFALC (CGRRF1 RING domain (UniProt Q99675)),0
B5 (TRIM5 RING domain),0
B6 (VPS41 RING domain),0
B7 (TRIM40 RING domain),0
PAELEVQASECVVCLEREAQMIFLNCGHVCCCQQCCQPLRTCPLCRQDIAQRLRIY (LRSAM1 RING domain (UniProt Q6UWE0)),0
B8 (TRIM5 RING domain),0
B9 (RNF208 RING domain),0

# For quick reference, copied from above (sample 4):
Change,normalised enrichment score
GSAKRRLFGHDPP [E10H],3.75
GSAKRRLFGEDAP [P12A],4.29
GSAKCRLFGEDPP [R5C],0.198
GSAKERLFGEDPP [R5E],0.212
GSAKRRLFQEDPP [G9Q],5.44
PSAKRRLFGEDPP [G1P],4.02
GFAKRRLFGEDPP [S2F],2.6
RSAKRRLFGEDPP [G1R],4.73
GSAKRRLFGEDPN [P13N],4.61
GSAKRRLFGYDPP [E10Y],3.23
GSARRRLFGEDPP [K4R],4.98
GSAFRRLFGEDPP [K4F],1.39
GSDKRRLFGEDPP [A3D],-0.426
GSAPRRLFGEDPP [K4P],-0.335
GSAKRRLFGEDPA [P13A],4.33
